Measurements gathered from unrelated publications.
Each line is one published result; not all experiments were run side by side. In brackets after ≈: the same amount, converted by molar mass.
Organism: Staphylococcus aureus

For CCC(=O)O[C@H]1[C@H](C)O[C@@H](O[C@H]2[C@H](N(C)C)[C@@H](O)[C@H](O[C@H]3[C@@H](CC=O)C[C@@H](C)[C@@H](O)/C=C/C=C/C[C@@H](C)OC(=O)C[C@@H](O)[C@@H]3OC)O[C@@H]2C)C[C@@]1(C)O, “inhibition zone diameter” read 30 mm (growth; SG 511, DMSO–methanol; 50 µL of 2.0 mM, 24 h, 37 °C).
With CCc1cc(=O)c2c(OCC(O)CN(CC)CC)c3ccoc3c(OC)c2o1 (stereo not drawn) the MIC was > 256 µg/mL (microbial growth, broth dilution; ATCC29; 19 h).
CCOC(=O)CSc1nnc(C23CC4CC(CC(C4)C2)C3)n1-c1ccccc1 — result for “inhibition zone diameter”: 22 mm (IFO 3060; 200 µg/disc, 24 h, 37 °C).
The FIC index of CC[C@H]1OC(=O)[C@H](C)[C@@H](O[C@H]2C[C@@](C)(OC)[C@@H](O)[C@H](C)O2)[C@H](C)[C@@H](O[C@@H]2O[C@H](C)C[C@H](N(C)C)[C@H]2O)[C@](C)(OC)C[C@@H](C)C(=O)[C@H](C)[C@@H](O)[C@]1(C)O is reported as 0.25 (checkerboard broth microdilution; ATCC 25923; together with: ranalexin).
With CC(=O)NC[C@H]1CN(c2ccc(N3CCOCC3)c(F)c2)C(=O)O1 the MIC was 4 µM (broth microdilution; USA300 LAC; 1% human serum).
Oc1c(Br)cc(Br)c2nc3ccccc3nc12 gave an MBC of 37.5 µM (≈ 13.3 µg/mL) (Calgary Biofilm Device; MRSA 2, clinical isolate).
With CO/N=C(\C(=O)N[C@@H]1C(=O)N2C(C(=O)O)=C(CSc3nc(=O)c(=O)[nH]n3C)CS[C@H]12)c1csc(N)n1 the FIC index was 0.25 (checkerboard broth microdilution; methicillin-susceptible isolate 56-96; together with: magainin II).
For Cc1ccccc1NC(=O)C1C(=O)C(c2ccccc2)c2ccc3c(c21)C(=O)c1ccccc1C3=O (stereo not drawn), the inhibition zone was 10 mm (microbial growth, disc diffusion; MTCC96; 100 µg/mL, 24 h).
For Oc1ccc(Cl)cc1C=Nc1ncn[nH]1, the MIC was 64 µg/mL (microbial growth, broth dilution; ATCC29213).
With CCc1cc(=O)c2c(OCC(O)CN3CCC(C)CC3)c3ccoc3c(OC)c2o1 (stereo not drawn) the MIC was > 256 µg/mL (microbial growth, broth dilution; NCTC4163; 19 h).
Under “log10 CFU change”, CN(C)c1ccc(O)c2c1C[C@H]1C[C@H]3[C@H](N(C)C)C(O)=C(C(N)=O)C(=O)[C@@]3(O)C(O)=C1C2=O is recorded as 0.98 log10 (MRSA 5 tetM, mouse thigh infection model; sc, 20 mg/kg, 24 h; baseline: untreated control).
For C[C@H]1c2cccc(O)c2C(=O)C2=C(O)[C@]3(O)C(=O)C(C(N)=O)=C(O)[C@@H](N(C)C)[C@@H]3[C@@H](O)[C@@H]21, the FIC index was 0.25 (checkerboard broth microdilution; ATCC 27853; together with: ranalexin).
The MIC of CCc1cc(=O)c2c(O)c3ccoc3c(OC)c2o1 is reported as 64 µg/mL (microbial growth, broth dilution; ATCC25; 19 h).
C[C@@H](O)[C@H]1C(=O)N2C(C(=O)O)=C(S[C@@H]3CN[C@H](C(=O)N(C)C)C3)[C@H](C)[C@H]12 gave an FIC index of 0.375 (checkerboard broth microdilution; clinical isolate 14-99; together with: magainin II).
`gentamicin`: “inhibition zone diameter” 22 mm (ATCC 29213; 10 µg/mL, 24 h, 37 °C).

For quick reference, copied from above:
C[C@@H](O)[C@H]1C(=O)N2C(C(=O)O)=C(S[C@@H]3CN[C@H](C(=O)N(C)C)C3)[C@H](C)[C@H]12 gave an FIC index of 0.375 (checkerboard broth microdilution; clinical isolate 14-99; together with: magainin II).
`gentamicin`: “inhibition zone diameter” 22 mm (ATCC 29213; 10 µg/mL, 24 h, 37 °C).
